Assay results collected from several papers.
Values joined by “and” are separate records of one study, mostly repeats; a detail may differ. ± marks the error that the study gave.

Clc1cc(Cl)cc([C@@H]2COC[C@]3(CCOc4ccccc43)N2)c1  logD (shake-flask, 1-octanol/buffer; pH 7.4): > 4.7
C=CC(=O)Nc1cc(Nc2nccc(-c3cn(C)c4ccccc34)n2)c(OC)cc1N(C)CCN(C)C  recovery (storage stability; human dried blood spots; 72 h, on ice, high QC level): 67.2%
COc1cc2c3c(n(CCCN4CCOCC4)c(=O)c2cc1OC)-c1cc2c(cc1C3=O)OCO2  clearance (beagle dog, plasma; intravenous infusion, 10 mg/m^2, 1 h infusion): 30 to 50 L/h/m²
Oc1ccc(/C=C/c2cc(O)cc(O)c2)cc1  sodium (rat, azoxymethane-injected, blood at sacrifice; 100 mg/kg): 144 mEq/L and 145 mEq/L and 148 mEq/L
CC[C@H](C)CCCCC(=O)N[C@@H](CCN)C(=O)N[C@H](C(=O)N[C@@H](CCN)C(=O)N[C@H]1CCNC(=O)[C@H]([C@@H](C)O)NC(=O)[C@H](CCN)NC(=O)[C@H](CCN)NC(=O)[C@H](CC(C)C)NC(=O)[C@@H](Cc2ccccc2)NC(=O)[C@H](CCN)NC1=O)[C@@H](C)O  cumulative urinary excretion (normal renal function subjects, urine; IV, 0.75 mg/kg, 0-12 h, arithmetic mean): 0.884 mg
CCOc1c([C@H](C)n2nc(C)c3c(N)ncnc32)cc(Cl)c(F)c1[C@@H]1CNC(=O)C1  observations with HR ≤100 bpm (ECG; previously treated B-cell malignancy patients; oral, 45 mg once daily, baseline below thresholds): 100%
O=C(Nc1nc2cccc(-c3ccc(CN4CCS(=O)(=O)CC4)cc3)n2n1)C1CC1  treatment-emergent adverse events (item: arthralgia; human rheumatoid arthritis patients; oral, 150 mg once daily, 4 weeks, regardless of relatedness): 0%
COc1cc2nccc(Oc3ccc(NC(=O)c4cc5c(n(-c6ccccc6)c4=O)CCCC5=O)nc3)c2cc1OC  patients with decreased platelet (human, relapsed/refractory AML; oral, dose not given, grade ≥3, any causality, all doses): 15%
CC#CC(=O)N1CCC[C@H]1c1nc(-c2ccc(C(=O)Nc3ccccn3)cc2)c2c(N)nccn12  cysteine adduct formation (MES buffer; 100 µM, 23 h, pH 5.5, 37 °C, added: cysteine 10 mM): 19%
C[C@@H]1CCO[C@H]2Cn3cc(C(=O)NCc4ccc(F)cc4F)c(=O)c(O)c3C(=O)N12  plasma concentration (population PK, post-hoc; children, 25 to <30 kg, plasma; oral, 25 mg film-coated tablet, 24 h, steady state, geometric mean): 0.495 µg/mL
Cc1c([C@H]2COC[C@@H](c3cc(Cl)cc(Cl)c3)N2)cnn1-c1ccccc1  logD (shake-flask, 1-octanol/buffer; pH 7.4): > 4.7
CC[C@@]1(O)C(=O)OCc2c1cc1n(c2=O)Cc2cc3c(CN(C)C)c(O)ccc3nc2-1  cumulative urinary recovery (patients; intravenous, dose not given, 24 h, day 1): 94.1 ± 29.5%
COc1ccc([C@@H](O)c2cc(-c3ncnc4cc(N5CCOCC5)ccc34)c(F)cc2Cl)nn1  drug-related lymphopenia incidence (locally advanced rectal cancer patients; 250 mg, added: capecitabine and radiotherapy): 17%
COc1ccc2[nH]c([S+]([O-])Cc3ncc(C)c(OC)c3C)nc2c1 (centres unmarked)  Cmax (healthy Chinese volunteers, plasma; oral, 20 mg, enteric-coated tablets, CYP2C19 rapid metabolizers): 0.475 ± 0.0158 µg/mL
C[C@@H](O)[C@H](NC(=O)c1ccc(-c2ccccc2)cc1)C(=O)NO  logD (octanol/buffer; pH 7.4): 1.97
NC1(C(=O)N[C@@H](CCO)c2ccc(Cl)cc2)CCN(c2nc[nH]c3nccc2-3)CC1  incidence of blood creatinine increased (metastatic CRPC patients; 320 mg b.i.d., any grade, treatment-related, added: enzalutamide 160 mg daily): 0%
C[Si]1(C)O[Si](C)(C)O[Si](C)(C)O[Si](C)(C)O1  enthalpy of phase change (1-octanol/air; concentration not given): -43.7 kJ/mol

A few entries again:
CC[C@@]1(O)C(=O)OCc2c1cc1n(c2=O)Cc2cc3c(CN(C)C)c(O)ccc3nc2-1  cumulative urinary recovery (patients; intravenous, dose not given, 24 h, day 1): 94.1 ± 29.5%
